# Experimental data from different studies.
# Protocols differ between the studies behind these lines. Numbers after ± are the reported error.
# gag-pol I1092V reverse transcriptase I505V: Gag-Pol polyprotein, reverse transcriptase I505V (gag-pol, Human immunodeficiency virus type 1 group M subtype B, UniProt P04585, I1092V)
# gag-pol K652A reverse transcriptase: Gag-Pol polyprotein, reverse transcriptase (gag-pol, Human immunodeficiency virus type 1 group M subtype B, UniProt P04585, K652A)
# gag-pol D654N/K657R/K806Q/T802F reverse transcriptase: Gag-Pol polyprotein, reverse transcriptase (gag-pol, Human immunodeficiency virus type 1 group M subtype B, UniProt P04585, D654N/K657R/K806Q/T802F)
# Spike glycoprotein: Spike glycoprotein (Severe acute respiratory syndrome coronavirus 2, UniProt P0DTC2)
# gag-pol integrase: Gag-Pol polyprotein, integrase (gag-pol, Human immunodeficiency virus type 1 group M subtype B, UniProt P04585)
Structure (SMILES),tested on,test,test system,setting,how to read,quantity,result
Cn1cnc(Cn2c(=O)[nH]/c(=N\c3cc4cn(C)nc4cc3Cl)n(Cc3cc(F)c(F)cc3F)c2=O)n1,,,"human, mild renal impairment","oral, 375 mg, vessel puncture site haemorrhage TEAE, Moderate severity",,patients with adverse event,0%
COc1ccc2ccccc2c1/C=N/NC(=O)c1ccc(O)c(O)c1,gag-pol I1092V reverse transcriptase I505V,"RNase H activity, inhibitor",HIV-1,,,IC50,0.9 ± 0.1 µM
Cc1cn([C@H]2C[C@H](N=[N+]=[N-])[C@@H](CO[P@](=O)(O)O[P@](=O)(O)OP(=O)(O)O)O2)c(=O)[nH]c1=O,gag-pol K652A reverse transcriptase,inhibitor,HIV-1,,,IC50,0.3725 ± 0.00117 µM
O=C(O)c1ccc(-c2cccc(/C=N/NC(=O)c3cc(O)c(O)c(O)c3)c2)cc1,"Gag-Pol polyprotein, reverse transcriptase A502G (gag-pol, Human immunodeficiency virus type 1 group M subtype B, UniProt P04585, A1089G)","RNase H activity, inhibitor",HIV-1,,,IC50,1 ± 0.7 µM
Nc1ncnc2c([C@@H]3N[C@H](CO)[C@@H](O)[C@H]3O)c[nH]c12,Marburg virus,surface glycoprotein expression,"HeLa, Musoke","100 µM, 12 h",,inhibition,94.3%
O=P(O)(O)C(NC1CCCCCC1)P(=O)(O)O,gag-pol D654N/K657R/K806Q/T802F reverse transcriptase,"inhibitor, biochemical",,,,IC50,≥ 100 µM
CNC(=O)[C@@H](NC(=O)[C@H](CC(C)C)[C@H](O)C(=O)NO)C(C)(C)C,C2C12,,,"1 µM, together with: MP venom",baseline: venom alone,viability difference,14.9%
C[C@H](Cn1cnc2c(N)ncnc21)OCP(=O)(O)O,gag-pol K652A reverse transcriptase,inhibitor,HIV-1,,,IC50,5.663 ± 0.00123 µM
O=P(O)(O)C(O)(Cc1cccc(-c2ccc(Cl)cc2)c1)P(=O)(O)O,gag-pol D654N/K657R/K806Q/T802F reverse transcriptase,,,,,IC50,0.794 µM
O=C(Nc1sc2c(c1C(=O)Nc1ccccn1)CCCCC2)c1ccc(O)c(O)c1,"Gag-Pol polyprotein, reverse transcriptase p51 C280A (gag-pol, Human immunodeficiency virus type 1 group M subtype B, UniProt P04585, C867A)",,,,,IC50,0.52 ± 0.01 µM
O=C(O)c1ccc(-c2cccc(/C=N/NC(=O)c3ccc(O)c(O)c3)c2)cc1,gag-pol I1092V reverse transcriptase I505V,"RNase H activity, inhibitor",HIV-1,,,IC50,1 ± 0.2 µM
C[C@@H]1[C@H]2[C@H](O[C@@H]3O[C@H](CO)[C@@H](O)[C@H](O)[C@H]3O)OC=C(C(=O)O)[C@H]2C[C@@H]1O,Spike glycoprotein,"binding, biolayer interferometry",,,,Kd,36.9 µM
CN1CCc2cc(O)cc3c2[C@H]1Cc1ccc(O)c(O)c1-3,gag-pol integrase,"enzyme activity, inhibitor",,,,IC50,> 25 µM
Cc1cn([C@H]2C=C[C@@H](COP(=O)(O)OP(=O)(O)OP(=O)(O)O)O2)c(=O)[nH]c1=O,"Gag-Pol polyprotein, reverse transcriptase (gag-pol, Human immunodeficiency virus type 1 group M subtype B, UniProt P04585, K653T)",inhibitor,HIV-1,,,IC50,6.84 ± 1.18 µM
COc1ccc(/C=C/c2cc(O)cc(O)c2)cc1O,Spike glycoprotein,"binding, biolayer interferometry",,,,Kd,58.6 µM
CC[C@H](C)[C@H](NC(=O)[C@H](CC(C)C)NC(=O)[C@H](Cc1c[nH]c2ccccc12)NC(=O)[C@H](CCC(N)=O)NC(=O)[C@@H](NC(=O)[C@H](Cc1ccccc1)NC(=O)[C@H](C)NC(=O)[C@H](CCCCNC(=O)COCCOCCNC(=O)COCCOCCNC(=O)CC[C@H](NC(=O)CCCCCCCCCCCCCCCCCCC(=O)O)C(=O)O)NC(=O)[C@H](CCC(N)=O)NC(=O)[C@H](C)NC(=O)[C@@H](NC(=O)[C@H](CCCCN)NC(=O)[C@H](CC(=O)O)NC(=O)[C@H](CC(C)C)NC(=O)C(C)(C)NC(=O)[C@@H](NC(=O)[C@H](CO)NC(=O)[C@H](Cc1ccc(O)cc1)NC(=O)[C@H](CC(=O)O)NC(=O)[C@H](CO)NC(=O)[C@@H](NC(=O)[C@H](Cc1ccccc1)NC(=O)[C@@H](NC(=O)CNC(=O)[C@H](CCC(=O)O)NC(=O)C(C)(C)NC(=O)[C@@H](N)Cc1ccc(O)cc1)[C@@H](C)O)[C@@H](C)O)[C@@H](C)CC)[C@@H](C)CC)C(C)C)C(=O)N[C@@H](C)C(=O)NCC(=O)NCC(=O)N1CCC[C@H]1C(=O)N[C@@H](CO)C(=O)N[C@@H](CO)C(=O)NCC(=O)N[C@@H](C)C(=O)N1CCC[C@H]1C(=O)N1CCC[C@H]1C(=O)N1CCC[C@H]1C(=O)N[C@@H](CO)C(N)=O,,,healthy subjects,all MAD doses,,subjects with abdominal distension,14.3%
NC1CCc2cc(O)c(O)cc2C1 (racemic),gag-pol integrase,"enzyme activity, inhibitor",,,,IC50,> 25 µM
O=P(O)(O)C(O)(Cc1cnc2ccccn12)P(=O)(O)O,gag-pol D654N/K657R/K806Q/T802F reverse transcriptase,"inhibitor, biochemical",,,,IC50,≥ 100 µM

# A few entries again:
Structure (SMILES),tested on,test,test system,setting,how to read,quantity,result
COc1ccc2ccccc2c1/C=N/NC(=O)c1ccc(O)c(O)c1,gag-pol I1092V reverse transcriptase I505V,"RNase H activity, inhibitor",HIV-1,,,IC50,0.9 ± 0.1 µM
COc1ccc(/C=C/c2cc(O)cc(O)c2)cc1O,Spike glycoprotein,"binding, biolayer interferometry",,,,Kd,58.6 µM
O=C(O)c1ccc(-c2cccc(/C=N/NC(=O)c3cc(O)c(O)c(O)c3)c2)cc1,"Gag-Pol polyprotein, reverse transcriptase A502G (gag-pol, Human immunodeficiency virus type 1 group M subtype B, UniProt P04585, A1089G)","RNase H activity, inhibitor",HIV-1,,,IC50,1 ± 0.7 µM
